Published values pooled from the literature.
Every numbered part comes from another study and shows a few of its results, in no order. pKi: −log10 of the molar value.

Block 1
Target: Cyclin-dependent kinase 2, with cyclin A (CDK2, Homo sapiens, UniProt P24941)
Effect on: enzyme activity
Mode: inhibitor
Tested at: 0.5 µM
Baseline: control
| SMILES | remaining activity [%] |
| --- | --- |
| O=C1C(Cl)=C(N2C(=O)CCC2=O)C(=O)c2ccccc21 | 109 |
| Ic1cccc(CSc2nnc(-c3ccncc3)o2)c1 | 100 |
| N#C/C(=C\c1ccc(O)c(O)c1)C(=O)NCc1ccccc1 | 99.2 |
| Cc1cn(-c2cc(NC(=O)c3ccc(C)c(Nc4nccc(-c5cccnc5)n4)c3)cc(C(F)(F)F)c2)cn1 | 95.5 |
| C[C@@H]1CCN(C(=O)CC#N)C[C@@H]1N(C)c1ncnc2[nH]ccc12 | 89.5 |
| CN([C@@H](Cc1ccc(OS(=O)(=O)c2cccc3cnccc23)cc1)C(=O)N1CCN(c2ccccc2)CC1)S(=O)(=O)c1cccc2cnccc12 | 99.8 |
| O=c1cc(-c2cccc3c2Sc2ccccc2S3)oc(N2CCOCC2)c1 | 101 |
| CCN(CC)CCNC(=O)c1c(C)[nH]c(/C=C2\C(=O)Nc3ccc(Cl)cc32)c1C | 92.8 |
| Cc1nc2cc3nc(-c4cccs4)cnc3cc2n1C | 104 |
| CN(C)C[C@H]1CCn2c(c(C3=C(c4cn(C)c5ccccc45)C(=O)NC3=O)c3ccccc32)C1 | 76.2 |
| CCOc1nc(NC(=O)Cc2cc(OC)ccc2OC)cc(N)c1C#N | 104 |
| Cc1cc2ncc(-c3ccccc3)nc2cc1C | 99.3 |
| O=C1c2ccccc2-c2n[nH]c3cccc1c23 | 76.1 |
| Nc1cccc(-c2cc3c(Oc4cccc(O)c4)ncnc3[nH]2)c1 | 88.5 |
| CCN(CC)C(=O)c1ccc(Nc2nc(OCC3CCCCC3)c3[nH]cnc3n2)cc1 | 55.8 |
| Cn1nc2c3c(cccc31)C(=O)c1ccccc1-2 | 105 |
| COc1cc2ncnc(Nc3ccc(O)c(Br)c3)c2cc1OC | 88.7 |
| O=C1c2ccccc2-[n+]2ccc3c([nH]c4ccccc43)c21 | 72.4 |
| O=C(Nc1cccc(Nc2nccc(Nc3cccc(C(F)(F)F)c3)n2)c1)C1CC1 | 98.2 |
| c1ccc(-c2[nH]ncc2-c2ccnc3ccccc23)nc1 | 98.7 |
| c1ccc(-c2cnc(Nc3ccc(OCCN4CCCC4)cc3)s2)cc1 | 85.2 |

Block 2
Cell line: HaCaT
Tested at: 100 µM
Time: 18 h
| SMILES | viability [%] |
| --- | --- |
| O=C(O)C[C@H](O)C[C@H](O)/C=C/c1c(C2CC2)nc2ccccc2c1-c1ccc(F)cc1 | 88.4 |
| C=CC[C@@H]1/C=C(\C)C[C@H](C)C[C@H](OC)[C@H]2O[C@@](O)(C(=O)C(=O)N3CCCC[C@H]3C(=O)O[C@H](/C(C)=C/[C@@H]3CC[C@@H](O)[C@H](OC)C3)[C@H](C)[C@@H](O)CC1=O)[C@H](C)C[C@@H]2OC | 25 |
| CC1(C)[C@@H](OC(=O)CCC(=O)O)CC[C@]2(C)[C@H]3C(=O)C=C4[C@@H]5C[C@@](C)(C(=O)O)CC[C@]5(C)CC[C@@]4(C)[C@]3(C)CC[C@@H]12 | 98.1 |
| OC1(c2ccc(Cl)c(C(F)(F)F)c2)CCN(CCCC(c2ccc(F)cc2)c2ccc(F)cc2)CC1 | 21.4 |
| CC(C)NCC(O)COc1ccc(CCOCC2CC2)cc1 (stereo not shown) | 99.8 |
| CCc1nc(N)nc(N)c1-c1ccc(Cl)cc1 | 90.1 |
| Cc1cc(NS(=O)(=O)c2ccc(N)cc2)nc(C)n1 | 108 |
| N#CCC(C1CCCC1)n1cc(-c2ncnc3[nH]ccc23)cn1 (stereo not shown) | 83.1 |

Block 3
Host: human
Sample: microsomes or S9
Tested at: 2 µM
Time: 0.5 h
| Structure (SMILES) | remaining compound [%] |
| --- | --- |
| CCOc1ccccc1-n1nnc(C(=O)O)c1-c1ccncc1 | > 99 |
| COc1cc(=O)n2c(c1C(=O)N1CCN(c3ccc(C)cc3)CC1)CCCC2 | > 99 |
| O=C(Nc1c(C(c2ccc(Cl)cc2)N2CCN(CCO)CC2)oc2ccccc12)c1cccs1 (stereo not shown) | 27.1 |
| COc1ccc(-c2c(-n3cncn3)c([S+](C)[O-])nn2-c2ccc(F)cc2)cc1 (stereo not shown) | 77.3 |
| CCCn1nccc1-c1csc(S(=O)(=O)Nc2ccccc2)c1 | 0.0789 |
| Oc1ccc(-c2oncc2-c2ccccc2)c(O)c1 | 65 |
| COc1cc(NS(=O)(=O)c2ccc(-c3nnc(C4CCC4)o3)s2)cc(OC)c1 | 4.83 |
| CC(C)[C@@H](NS(=O)(=O)c1ccc(F)cc1)C(=O)O | 98.8 |
| CC(=O)OC/C=C/CCCC/C=C/COC(C)=O | > 99.9 |
| NC(=O)COc1ccc(-c2nc(-c3ccccc3)no2)cc1 | 65.5 |

Block 4
Target: Alpha-1D adrenergic receptor (ADRA1D, Homo sapiens, UniProt P25100)
Sequence of UniProt P25100 (whole entry, looked up): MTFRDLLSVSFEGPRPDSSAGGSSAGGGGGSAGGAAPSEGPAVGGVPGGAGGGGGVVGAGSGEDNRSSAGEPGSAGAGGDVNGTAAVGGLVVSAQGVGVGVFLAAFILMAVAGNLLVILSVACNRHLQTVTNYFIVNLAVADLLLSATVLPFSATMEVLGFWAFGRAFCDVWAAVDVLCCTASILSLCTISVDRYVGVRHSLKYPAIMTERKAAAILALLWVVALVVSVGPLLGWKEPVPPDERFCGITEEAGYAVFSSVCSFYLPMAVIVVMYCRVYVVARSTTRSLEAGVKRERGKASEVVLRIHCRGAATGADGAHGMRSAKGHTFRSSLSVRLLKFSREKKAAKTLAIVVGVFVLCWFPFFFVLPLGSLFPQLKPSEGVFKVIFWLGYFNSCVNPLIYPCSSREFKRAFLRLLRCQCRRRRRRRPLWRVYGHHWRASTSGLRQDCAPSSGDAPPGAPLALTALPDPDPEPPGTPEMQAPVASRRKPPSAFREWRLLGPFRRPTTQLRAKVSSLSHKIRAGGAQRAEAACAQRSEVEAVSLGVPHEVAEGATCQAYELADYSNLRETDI
Effect on: binding
Technique: radioligand binding
| SMILES | pKi |
| --- | --- |
| CC(=O)N1CCC(c2ccc(C(=O)NC3=NCCN3)cc2C(F)(F)F)CC1 | < 5.00 |
| CN([C@@H]1CCc2c(CC(=O)O)c3ccccc3n2C1)S(=O)(=O)c1ccc(F)cc1 | < 5.00 |
| CC(=O)N1CCC(c2ccc(C(=O)NC(=N)N)cc2C(F)(F)F)CC1 | < 5.00 |
| O=C(NS(=O)(=O)c1ccc(NCC2CCOCC2)c([N+](=O)[O-])c1)c1ccc(N2CCN(Cc3ccc(C(F)(F)F)cc3-c3ccc(Cl)cc3)CC2)cc1Oc1cnc2[nH]ccc2c1 | < 5.00 |

Excerpt of the above (block 1):
| SMILES | remaining activity [%] |
| --- | --- |
| O=C1c2ccccc2-c2n[nH]c3cccc1c23 | 76.1 |
| Nc1cccc(-c2cc3c(Oc4cccc(O)c4)ncnc3[nH]2)c1 | 88.5 |
| CCN(CC)C(=O)c1ccc(Nc2nc(OCC3CCCCC3)c3[nH]cnc3n2)cc1 | 55.8 |
